Assay results of several laboratories.
± gives the spread as reported.

C/C=C(/C)C(=O)O[C@H]1C(C)=C2[C@H]([C@@H]1OC(=O)CCCCCCC)[C@@](C)(OC(C)=O)C[C@H](OC(=O)CCCCCCCCCCCNC(=O)[C@H](CO)NC(=O)[C@@H]1CCCN1C(=O)CNC(=O)[C@@H](NC(=O)[C@H](CCC(=O)O)NC(=O)CNC(=O)[C@H](CCCNC(=N)N)NC(=O)[C@@H](N)CCC(=O)O)[C@@H](C)O)[C@@]1(O)[C@H]2OC(=O)[C@@]1(C)O
t1/2 (female nude mouse, MCF7 xenograft, tumour; intravenous, full-length prodrug): ~12 h

CCCC[C@H](NC(=O)CNC(=O)[C@H](CO)NC(=O)CNC(=O)c1ccc(NN)nc1)C(=O)N[C@H]1CC(=O)NCCCC[C@@H](C(N)=O)NC(=O)[C@H](Cc2c[nH]c3ccccc23)NC(=O)[C@H](CCCNC(=N)N)NC(=O)[C@@H](Cc2ccccc2)NC(=O)[C@H](Cc2c[nH]cn2)NC1=O [technetium-99m labelled]
uptake ratio (C57 mouse, B16/F1 melanoma; 2 h; relative to: tumour over lung): 50.1

CSCC[C@H](NC(=O)[C@H](CC(C)C)NC(=O)[C@H](Cc1c[nH]cn1)NC(=O)CNC(=O)[C@@H](NC(=O)[C@H](C)NC(=O)[C@H](Cc1c[nH]c2ccccc12)NC(=O)[C@H](CCC(N)=O)NC(=O)CCCCCNC(=O)CNC(=O)CNC(=O)CNC(=O)CSC(C)=O)C(C)C)C(N)=O [technetium-99m labelled]
tissue uptake (Swiss mouse, bone; intravenous, 18.5 MBq, 30 min): 0.13 ± 0.01 %ID/g

N=C(N)NCCC[C@@H]1NC(=O)[C@H](CCCCNC(=O)CCOCCOCCOCCOCCNC(=O)CN2CCN(CC(=O)O)CCN(CC(=O)O)CCN(CC(=O)O)CC2)NC(=O)[C@@H](Cc2ccccc2)NC(=O)[C@H](CC(=O)O)NC(=O)CNC1=O [indium-111 labelled]
tumour to tissue ratio (athymic nude mice, female, U-87 MG glioma xenograft, tumour and brain; intravenous, 4 h; relative to: tumour over brain): 73.1 ± 3

CC[C@H]1c2cc3[nH]c4c(c3C)C(=O)[C@H](C(=O)OC)c4c3nc(cc4[nH]c(cc(n2)[C@@H]1C)c(C(C)=O)c4C)[C@@H](C)[C@@H]3CCC(=O)NCC(=O)N[C@H](CC(=O)O)C(=O)N[C@H](CCC(=O)O)C(=O)N[C@@H](C(=O)N[C@H](CC(=O)O)C(=O)NCC(=O)N[C@H](CO)C(=O)NCC(=O)N[C@H](CCCCN)C(N)=O)C(C)C
change of tumour fluorescence (nude mouse KB xenograft; intravenous, 25 nmol, 5 h to 24 h): decreased

N=C(N)NCCC[C@@H]1NC(=O)[C@H](CCCCNC(=O)CCOCCOCCOCCOCCNC(=O)CC[C@H](NC(=O)CCOCCOCCOCCOCCNC(=O)CC[C@H](NC(=O)CN2CCN(CC(=O)O)CCN(CC(=O)O)CCN(CC(=O)O)CC2)C(=O)NCCOCCOCCOCCOCCC(=O)N[C@@H](CCC(=O)NCCOCCOCCOCCOCCC(=O)NCCCC[C@@H]2NC(=O)[C@@H](Cc3ccccc3)NC(=O)[C@H](CC(=O)O)NC(=O)CNC(=O)[C@H](CCCNC(=N)N)NC2=O)C(=O)NCCOCCOCCOCCOCCC(=O)NCCCC[C@@H]2NC(=O)[C@@H](Cc3ccccc3)NC(=O)[C@H](CC(=O)O)NC(=O)CNC(=O)[C@H](CCCNC(=N)N)NC2=O)C(=O)NCCOCCOCCOCCOCCC(=O)NCCCC[C@@H]2NC(=O)[C@@H](Cc3ccccc3)NC(=O)[C@H](CC(=O)O)NC(=O)CNC(=O)[C@H](CCCNC(=N)N)NC2=O)NC(=O)[C@@H](Cc2ccccc2)NC(=O)[C@H](CC(=O)O)NC(=O)CNC1=O [indium-111 labelled]
tumour to tissue ratio (athymic nude mice, female, U-87 MG glioma xenograft, tumour and kidney; intravenous, 1 h; relative to: tumour over kidney): 1.56 ± 0.41

N=C(N)NCCC[C@@H]1NC(=O)[C@H](CCCCNC(=O)CNC(=O)CNC(=O)CNC(=O)CC[C@H](NC(=O)c2ccc(NN=Cc3ccccc3S(=O)(=O)O)nc2)C(=O)NCC(=O)NCC(=O)NCC(=O)NCCCC[C@@H]2NC(=O)[C@@H](Cc3ccccc3)NC(=O)[C@H](CC(=O)O)NC(=O)CNC(=O)[C@H](CCCNC(=N)N)NC2=O)NC(=O)[C@@H](Cc2ccccc2)NC(=O)[C@H](CC(=O)O)NC(=O)CNC1=O [technetium-99m labelled]
tissue uptake (athymic nu/nu mouse, female, MDA-MB-435 xenograft, kidney; intravenous, 120 min): 10.7 ± 2.43 %ID/g

CCCC[C@H](NC(=O)CNC(=O)CNC(=O)c1ccc(NN)nc1)C(=O)N[C@H]1CC(=O)NCCCC[C@@H](C(N)=O)NC(=O)[C@H](Cc2c[nH]c3ccccc23)NC(=O)[C@H](CCCNC(=N)N)NC(=O)[C@@H](Cc2ccccc2)NC(=O)[C@H](Cc2c[nH]cn2)NC1=O [technetium-99m labelled]
uptake (C57 mouse, B16/F1 melanoma, blood; 2 h, added: L-lysine 12 mg): 0.09 ± 0.05 %ID/g

CC(C)C[C@H](NC(=O)C[C@H](O)[C@H](CC(C)C)NC(=O)[C@H](Cc1c[nH]cn1)NC(=O)CNC(=O)[C@@H](NC(=O)[C@H](C)NC(=O)[C@H](Cc1c[nH]c2ccccc12)NC(=O)[C@H](CCC(N)=O)NC(=O)[C@@H](Cc1ccccc1)NC(=O)c1ccc(NC(=O)CNC(=O)CCC(C(=O)O)N2CCN(CC(=O)O)CCN(CC(=O)O)CC2)cc1)C(C)C)C(N)=O (stereo partly drawn) [copper-64 labelled]
intact probe (mouse serum; 1 h, 37 °C): > 90%

CCCC[C@H](NC(=O)CCCCCCCNC(=O)c1ccc(NN)nc1)C(=O)N[C@H]1CC(=O)NCCCC[C@@H](C(N)=O)NC(=O)[C@H](Cc2c[nH]c3ccccc23)NC(=O)[C@H](CCCNC(=N)N)NC(=O)[C@@H](Cc2ccccc2)NC(=O)[C@H](Cc2c[nH]cn2)NC1=O [technetium-99m labelled]
uptake (C57 mouse, B16/F1 melanoma, tumor; intravenous, 4 h): 22.2 ± 5.93 %ID/g

N=C(N)NCCC[C@@H]1NC(=O)[C@H](CCCCNC(=O)CC[C@H](NC(=O)CCOCCOCCOCCOCCNC(=O)CN2CCN(CC(=O)O)CCN(CC(=O)O)CCN(CC(=O)O)CC2)C(=O)NCCCC[C@@H]2NC(=O)[C@@H](Cc3ccccc3)NC(=O)[C@H](CC(=O)O)NC(=O)CNC(=O)[C@H](CCCNC(=N)N)NC2=O)NC(=O)[C@@H](Cc2ccccc2)NC(=O)[C@H](CC(=O)O)NC(=O)CNC1=O [indium-111 labelled]
tumour to tissue ratio (athymic nude mice, female, U-87 MG glioma xenograft, tumour and lungs; intravenous, 72 h; relative to: tumour over lungs): 4.75 ± 0.63

CC(C)C[C@@H]1NC(=O)[C@H](C(C)C)NC(=O)[C@H](CO)NC(=O)CNC(=O)CNC(=O)[C@H](CCCNC(=N)N)NC(=O)[C@@H]2CCCN2C(=O)[C@@H](NC(=O)CC[C@H](NC(=O)c2ccc(N(C)Cc3cnc4nc(N)nc(N)c4n3)cc2)C(=O)O)C(C)(C)SSC[C@@H](C(=O)O)NC(=O)CNC(=O)[C@H]([C@@H](C)O)NC(=O)[C@H](C(C)C)NC1=O
half-life (phosphate buffer; 100 µM, pH 8.0, 70 °C): 224 h

CCCC[C@H](NC(=O)CNC(=O)CNC(=O)CNC(=O)c1ccc(NN)nc1)C(=O)N[C@H]1CC(=O)NCCCC[C@@H](C(N)=O)NC(=O)[C@H](Cc2c[nH]c3ccccc23)NC(=O)[C@H](CCCNC(=N)N)NC(=O)[C@@H](Cc2ccccc2)NC(=O)[C@H](Cc2c[nH]cn2)NC1=O [technetium-99m labelled]
uptake ratio (C57 mouse, B16/F1 melanoma; 2 h; relative to: tumour over skin): 31.8

N=C(N)NCCC[C@@H]1NC(=O)[C@H](CCCCNC(=O)CNC(=O)CNC(=O)CNC(=O)CC[C@H](NC(=O)CCOCCOCCOCCOCCNC(=O)CC[C@H](NC(=O)CN2CCN(CC(=O)O)CCN(CC(=O)O)CCN(CC(=O)O)CC2)C(=O)NCCOCCOCCOCCOCCC(=O)N[C@@H](CCC(=O)NCC(=O)NCC(=O)NCC(=O)NCCCC[C@@H]2NC(=O)[C@@H](Cc3ccccc3)NC(=O)[C@H](CC(=O)O)NC(=O)CNC(=O)[C@H](CCCNC(=N)N)NC2=O)C(=O)NCC(=O)NCC(=O)NCC(=O)NCCCC[C@@H]2NC(=O)[C@@H](Cc3ccccc3)NC(=O)[C@H](CC(=O)O)NC(=O)CNC(=O)[C@H](CCCNC(=N)N)NC2=O)C(=O)NCC(=O)NCC(=O)NCC(=O)NCCCC[C@@H]2NC(=O)[C@@H](Cc3ccccc3)NC(=O)[C@H](CC(=O)O)NC(=O)CNC(=O)[C@H](CCCNC(=N)N)NC2=O)NC(=O)[C@@H](Cc2ccccc2)NC(=O)[C@H](CC(=O)O)NC(=O)CNC1=O [indium-111 labelled]
tumour to tissue ratio (athymic nude mice, female, U-87 MG glioma xenograft, tumour and blood; intravenous, 0.5 h; relative to: tumour over blood): 13.6 ± 3.47

CCCC[C@@H](NC(=O)[C@H](Cc1c[nH]c2ccccc12)NC(=O)[C@@H](N)CSC1CC(=O)N(CC2CCC(C(=O)N[C@H]3C[C@H](O[C@H]4C[C@](O)(C(=O)CO)Cc5c(O)c6c(c(O)c54)C(=O)c4c(OC)cccc4C6=O)O[C@@H](C)[C@H]3O)CC2)C1=O)C(=O)N[C@@H](CCC(=O)O)C(=O)N[C@@H](C)C(=O)N[C@@H](C)C(=O)N[C@@H](Cc1ccc(O)cc1)C(=O)N[C@@H](CCC(N)=O)C(=O)N[C@H](CCCNC(=N)N)C(=O)N[C@@H](Cc1ccccc1)C(=O)N[C@@H](CC(C)C)C(N)=O (stereo partly drawn)
half-life (chemical stability; PBS; 100 µM, pH 5): 24 h
